{"data": "Results pooled from the literature", "note": "Compare with care: the assays were run in different laboratories."}
{"SMILES": "COc1cc(Nc2ncc3c(n2)-c2ccc(Cl)cc2C(c2c(F)cccc2OC)=NC3)ccc1C(=O)O", "test": "refers to: Fever, grade 3", "system": "cancer patients, phase 1/2", "setting": "oral, dose not given, added: pembrolizumab", "quantity": "patients with adverse event", "result": "4%"}
{"SMILES": "NC(=O)N1c2ccccc2C=Cc2ccccc21", "system": "male patients", "setting": "oral, dose not given, treatment-related adverse events", "quantity": "patients with upper abdominal pain", "result": "0%"}
{"SMILES": "CCO[C@H]1CCN(Cc2c(OC)cc(C)c3[nH]ccc23)[C@H](c2ccc(C(=O)O)cc2)C1", "test": "refers to: Nasopharyngitis", "system": "PNH patients, active haemolysis", "setting": "oral, 100 mg twice daily, extension phase", "quantity": "patients with adverse event", "result": "0%"}
{"SMILES": "COc1cc2nccc(Oc3ccc(NC(=O)c4cc5c(n(-c6ccccc6)c4=O)CCCC5=O)nc3)c2cc1OC", "system": "patients with relapsed/refractory AML", "setting": "oral, 10 mg once daily", "quantity": "patients with TEAEs", "result": "100%"}
{"SMILES": "C=CC(=O)Nc1cc(Nc2nccc(-c3cn(C)c4ccccc34)n2)c(OC)cc1N(C)CCN(C)C", "test": "refers to: Pneumonitis grade ≥3", "system": "EGFR-mutant MET-altered NSCLC", "setting": "oral, study", "quantity": "patients with treatment-related AEs", "result": "0%"}
{"SMILES": "CNC(=O)c1ccc(-c2cnc3ncc(Cc4ccc5ncccc5c4)n3n2)cc1F", "test": "refers to: Asthenia, all grades", "system": "cancer patients", "setting": "oral, 600 mg twice daily, expansion cohort, any causality", "quantity": "patients with adverse event", "result": "8%"}
{"SMILES": "CNC(=O)c1cc(Oc2ccc(NC(=O)Nc3cc(C(C)(C)C)nn3-c3ccc4ncccc4c3)c(F)c2)ccn1", "system": "patients", "setting": "oral, dose not given, cycles 1 and 2, Medium AUC subgroup", "quantity": "patients with grade 1 musculoskeletal disorders", "result": "7%"}
{"SMILES": "Cc1cc(-c2nnc(N)nc2-c2ccc(F)cc2)cc(Cl)n1", "test": "refers to: type 1 diabetes mellitus", "system": "IO-naive mCRPC patients, male", "setting": "oral, dose not given, treatment-related, grade 1", "quantity": "patients with immune-mediated AE", "result": "0%"}
{"SMILES": "O=C(Nc1nc2cccc(-c3ccc(CN4CCS(=O)(=O)CC4)cc3)n2n1)C1CC1", "system": "rheumatoid arthritis patients", "setting": "oral, 100 mg twice daily, 4 weeks, TEAE regardless of relatedness", "quantity": "patients with Gastrointestinal disorders", "result": "16.7%"}
{"SMILES": "CCOc1c([C@H](C)n2nc(C)c3c(N)ncnc32)cc(Cl)c(F)c1[C@@H]1CNC(=O)C1", "test": "refers to: QTcF change ≤30 ms", "system": "previously treated B-cell malignancy", "setting": "oral, 15 mg once daily, overall population", "how to read": "relative to: baseline", "quantity": "patients", "result": "100%"}
{"SMILES": "Cc1cc(NC2CCN(C(=O)OC3CCN(C(=O)/C=C/CN(C)C)C3)CC2)n2ncc(C(C)C)c2n1 (stereo not drawn)", "test": "Phase I dose escalation CTCAE v4.0, refers to: small intestinal obstruction", "system": "patients with advanced solid tumours", "setting": "dose not given, Total dosing grade 3 or higher", "quantity": "patients with adverse event", "result": "4%"}
{"SMILES": "COc1ccc([C@@H](O)c2cc(-c3ncnc4cc(N5CCOCC5)ccc34)c(F)cc2Cl)nn1", "system": "locally advanced rectal cancer patients", "setting": "150 mg, drug-related adverse events, added: capecitabine and radiotherapy", "quantity": "patients with investigation abnormalities", "result": "33%"}
{"SMILES": "CC(C)C[C@H](NC(=O)CNC(=O)c1cc(Cl)ccc1Cl)B(O)O", "test": "refers to: Neutropenia, all grades", "system": "newly diagnosed multiple myeloma patients", "setting": "oral, dose not given, maintenance phase, new onset, cycle 17 or later", "quantity": "patients with adverse event", "result": "0%"}
{"SMILES": "C=CC(=O)NC1CCN(c2ncc3ncnc(Nc4ccc(Oc5ccc6c(c5)ncn6C)c(C)c4)c3n2)CC1", "system": "male patients", "setting": "oral, dose not given, treatment-related adverse events", "quantity": "patients with Diarrhea", "result": "0%"}
{"SMILES": "C[C@@H](Nc1cc(F)cc(F)c1)c1cc(C(=O)N(C)C)cc2c(=O)cc(N3CCOCC3)oc12", "test": "refers to: Colitis", "system": "advanced solid tumour patients", "setting": "oral, dose not given, dose finding", "quantity": "patients discontinuing for AE", "result": "4.8%"}
{"note": "For quick reference, copied from above:"}
{"SMILES": "NC(=O)N1c2ccccc2C=Cc2ccccc21", "system": "male patients", "setting": "oral, dose not given, treatment-related adverse events", "quantity": "patients with upper abdominal pain", "result": "0%"}
{"SMILES": "O=C(Nc1nc2cccc(-c3ccc(CN4CCS(=O)(=O)CC4)cc3)n2n1)C1CC1", "system": "rheumatoid arthritis patients", "setting": "oral, 100 mg twice daily, 4 weeks, TEAE regardless of relatedness", "quantity": "patients with Gastrointestinal disorders", "result": "16.7%"}
